Experimental data from different studies.
Each numbered part is a random draw from the data of one study; scales do not carry over between parts. Positions count from the first letter of the parent shown.
Chain of UniProt O75417 (whole entry, unmodified, looked up): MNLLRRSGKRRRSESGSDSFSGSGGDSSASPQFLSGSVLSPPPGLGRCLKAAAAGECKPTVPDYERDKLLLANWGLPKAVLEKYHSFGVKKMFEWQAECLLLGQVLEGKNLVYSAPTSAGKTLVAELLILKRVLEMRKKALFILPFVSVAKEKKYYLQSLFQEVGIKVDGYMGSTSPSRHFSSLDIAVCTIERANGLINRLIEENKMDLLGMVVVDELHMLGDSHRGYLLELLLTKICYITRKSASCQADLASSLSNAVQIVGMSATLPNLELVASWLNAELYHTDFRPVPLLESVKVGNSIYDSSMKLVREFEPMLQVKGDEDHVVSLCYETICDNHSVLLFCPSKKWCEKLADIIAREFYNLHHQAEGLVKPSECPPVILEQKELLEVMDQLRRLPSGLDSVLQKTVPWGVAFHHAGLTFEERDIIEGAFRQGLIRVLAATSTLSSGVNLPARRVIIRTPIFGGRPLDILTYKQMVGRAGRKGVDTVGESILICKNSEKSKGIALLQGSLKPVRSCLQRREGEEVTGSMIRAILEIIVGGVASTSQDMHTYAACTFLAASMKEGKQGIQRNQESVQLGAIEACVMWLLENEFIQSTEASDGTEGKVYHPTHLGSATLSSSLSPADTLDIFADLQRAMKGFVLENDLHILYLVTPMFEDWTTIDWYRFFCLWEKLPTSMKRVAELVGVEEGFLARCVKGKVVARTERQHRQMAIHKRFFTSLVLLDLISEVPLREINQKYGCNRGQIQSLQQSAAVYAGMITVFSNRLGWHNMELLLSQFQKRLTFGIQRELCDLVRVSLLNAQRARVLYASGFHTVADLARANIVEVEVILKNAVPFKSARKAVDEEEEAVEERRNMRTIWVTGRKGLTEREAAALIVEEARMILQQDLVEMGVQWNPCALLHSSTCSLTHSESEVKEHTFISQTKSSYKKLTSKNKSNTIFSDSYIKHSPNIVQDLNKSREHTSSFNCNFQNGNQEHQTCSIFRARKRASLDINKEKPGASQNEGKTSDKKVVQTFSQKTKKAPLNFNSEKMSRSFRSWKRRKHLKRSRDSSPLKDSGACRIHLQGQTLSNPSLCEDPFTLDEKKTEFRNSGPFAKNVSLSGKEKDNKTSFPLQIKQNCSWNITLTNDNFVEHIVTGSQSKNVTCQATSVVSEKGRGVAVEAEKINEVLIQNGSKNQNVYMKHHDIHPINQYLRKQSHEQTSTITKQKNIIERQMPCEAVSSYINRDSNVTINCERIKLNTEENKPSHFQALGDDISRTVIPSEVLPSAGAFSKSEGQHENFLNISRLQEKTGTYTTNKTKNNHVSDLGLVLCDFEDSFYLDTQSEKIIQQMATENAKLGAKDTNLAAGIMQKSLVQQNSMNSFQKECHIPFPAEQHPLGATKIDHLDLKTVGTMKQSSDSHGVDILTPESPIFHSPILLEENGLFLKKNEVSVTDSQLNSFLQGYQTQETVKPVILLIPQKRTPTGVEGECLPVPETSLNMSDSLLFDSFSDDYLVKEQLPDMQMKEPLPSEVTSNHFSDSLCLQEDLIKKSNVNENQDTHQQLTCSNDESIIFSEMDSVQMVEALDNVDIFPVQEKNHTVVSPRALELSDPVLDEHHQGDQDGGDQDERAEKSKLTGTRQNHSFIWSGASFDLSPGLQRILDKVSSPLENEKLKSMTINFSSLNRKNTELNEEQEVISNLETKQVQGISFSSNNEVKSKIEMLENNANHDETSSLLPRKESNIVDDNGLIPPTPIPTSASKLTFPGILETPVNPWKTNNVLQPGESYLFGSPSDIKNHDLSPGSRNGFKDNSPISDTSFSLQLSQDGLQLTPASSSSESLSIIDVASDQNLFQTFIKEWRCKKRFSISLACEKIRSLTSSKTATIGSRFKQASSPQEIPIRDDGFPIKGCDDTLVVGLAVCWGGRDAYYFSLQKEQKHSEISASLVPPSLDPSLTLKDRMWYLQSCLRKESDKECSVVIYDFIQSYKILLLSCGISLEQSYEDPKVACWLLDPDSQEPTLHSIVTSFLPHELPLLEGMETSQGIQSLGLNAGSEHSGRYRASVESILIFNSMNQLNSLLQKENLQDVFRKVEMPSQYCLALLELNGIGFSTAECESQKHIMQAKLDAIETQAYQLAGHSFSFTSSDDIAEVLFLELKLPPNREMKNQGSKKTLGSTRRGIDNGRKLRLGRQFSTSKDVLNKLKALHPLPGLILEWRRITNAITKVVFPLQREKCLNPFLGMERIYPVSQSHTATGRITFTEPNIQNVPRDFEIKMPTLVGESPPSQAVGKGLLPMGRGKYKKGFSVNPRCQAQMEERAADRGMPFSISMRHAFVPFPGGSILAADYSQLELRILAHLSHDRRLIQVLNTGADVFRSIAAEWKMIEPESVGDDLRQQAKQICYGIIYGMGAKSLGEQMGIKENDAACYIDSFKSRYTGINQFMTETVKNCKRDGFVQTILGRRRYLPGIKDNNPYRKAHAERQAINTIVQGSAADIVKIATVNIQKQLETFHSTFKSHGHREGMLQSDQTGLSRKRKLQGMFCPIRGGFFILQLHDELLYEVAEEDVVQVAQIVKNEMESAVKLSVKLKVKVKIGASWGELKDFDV

Block 1
Target: CCND3, cyclin fold, Cln2 fusion (human)
Technique: yeast growth competition, sequencing
Sample: yeast
Setting: weak parent motif
Baseline: not given
Direction: higher = stronger binding
Parent: viral docking peptide; KKVKRRLFETREL
Under “normalised enrichment score”, `R5A` is recorded as 0.144.
`T10A`: “normalised enrichment score” 0.19.
`V3A` — result for “normalised enrichment score”: 0.143.
Under “normalised enrichment score”, `R5K` is recorded as 0.534.
For `E12A`, “normalised enrichment score” read 0.225.
Under “normalised enrichment score”, `R5A L7A` is recorded as 0.0257.
Under “normalised enrichment score”, `R5K F8L` is recorded as 0.625.
For `E9A`, “normalised enrichment score” read 0.119.
`R6A` — result for “normalised enrichment score”: 0.108.
Under “normalised enrichment score”, `K1A` is recorded as 0.184.

Block 2
Target: Histone acetyltransferase KAT6A, winged helix 2, GST fusion (KAT6A, Homo sapiens, UniProt Q92794, residues 85-181)
Technique: protein binding microarray
Molecule type: double-stranded DNA, one strand shown
Sample: in vitro
Tested at: not given
Setting: 8-mer, flanks averaged, mean of 2 arrays, mostly near background
Baseline: not given
Direction: higher = stronger binding
Target sequence (chain): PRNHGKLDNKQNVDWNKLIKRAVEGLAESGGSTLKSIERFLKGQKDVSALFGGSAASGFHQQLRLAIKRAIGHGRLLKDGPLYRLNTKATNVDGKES
The E-score of `AGTTCCAG` is reported as -0.0444.
For `AGTGATAG`, the E-score was -0.147.
For `GGAGGACC`, the E-score was -0.0281.
With `CGTTATTA` the E-score was -0.177.
The E-score of `AACCGGGT` is reported as 0.00936.
For `GATCAATC`, the E-score was 0.0171.
`GGTGCTTA` has an E-score of 0.173.
For `AGCGATCG`, the E-score was -0.0994.

Block 3
Target: PABPC1L2, full length, GST fusion (mouse, UniProt A0ABA7IW68)
Technique: RNAcompete
Molecule type: RNA
Sample: in vitro
Tested at: 20 nM
Setting: 7-mer, probes averaged, single round
Baseline: mean of 7-mers
Direction: higher = stronger binding
Target sequence (chain): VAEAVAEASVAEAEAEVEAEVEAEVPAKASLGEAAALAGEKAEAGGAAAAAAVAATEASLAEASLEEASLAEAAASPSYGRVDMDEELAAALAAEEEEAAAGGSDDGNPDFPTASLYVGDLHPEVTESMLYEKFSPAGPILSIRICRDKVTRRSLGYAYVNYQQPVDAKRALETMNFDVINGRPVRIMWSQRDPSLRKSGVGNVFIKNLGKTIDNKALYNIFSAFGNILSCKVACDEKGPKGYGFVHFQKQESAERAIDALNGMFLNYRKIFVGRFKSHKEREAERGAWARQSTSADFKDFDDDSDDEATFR
The 7-mer Z-score of `GGUGAAA` is reported as 0.47.
`AAUCGCU` has a 7-mer Z-score of -0.0301.
With `CGUAUUG` the 7-mer Z-score was -0.0627.
The 7-mer Z-score of `GUGGUAG` is reported as -0.148.
With `UGCAGGC` the 7-mer Z-score was -0.0428.
For `UUGGCAC`, the 7-mer Z-score was -0.115.
With `UCGGUAA` the 7-mer Z-score was 0.0642.
`CCAGGGG` has a 7-mer Z-score of 0.169.

Further values, each from its own experiment
The remaining activity of O=C1NC(=O)c2c1c1c3ccccc3n3c1c1c2c2ccccc2n1[C@H]1CC[C@@H]3O1 is reported as 95.1% (DNA polymerase theta, ATPase domain (POLQ, Homo sapiens, UniProt O75417); enzyme activity, inhibitor; 77 µM; baseline: untreated).

Some of these lines once more (block 1):
Under “normalised enrichment score”, `R5A L7A` is recorded as 0.0257.
Under “normalised enrichment score”, `R5K F8L` is recorded as 0.625.
For `E9A`, “normalised enrichment score” read 0.119.
